Measurements from different studies.
Every numbered part comes from another study and shows a few of its results, in no order. Positions count from the first letter of the parent shown.

Set 1
Target: Prothrombin, mature alpha-thrombin (F2, Homo sapiens, UniProt P00734)
Method: aptamer microarray, sandwich
Form: DNA with 2'F-ANA
Matrix: in vitro
Concentration: 200 nM
Notes: whole 15-mer aptamer, many near background
Added: Cy3 exosite-II aptamer, 400 nM
Reading: higher = stronger binding
Oligonucleotide: GGTTGGTGTGGTTGG
| Modification | mean fluorescence intensity [a.u.] |
| --- | --- |
| 2'F-ANA at 2 3 4 5 7 13 14 15 | 49.4 |
| 2'F-ANA at 1 3 5 6 8 10 13 15 | 48.9 |
| 2'F-ANA at 3 5 8 10 11 13 15 | 66.4 |
| 2'F-ANA at 1 2 4 10 12 13 | 55.7 |
| 2'F-ANA at 2 4 6 9 10 14 15 | 60.1 |
| 2'F-ANA at 2 3 7 8 | 1050 |
| 2'F-ANA at 3 4 6 8 9 10 11 12 | 261 |
| 2'F-ANA at 1 2 4 5 8 9 10 11 13 | 47.2 |

Set 2
Target: Ras GTPase-activating protein-binding protein 1, full length (G3BP1, Homo sapiens, UniProt Q13283)
Chain of UniProt Q13283 (whole entry, looked up): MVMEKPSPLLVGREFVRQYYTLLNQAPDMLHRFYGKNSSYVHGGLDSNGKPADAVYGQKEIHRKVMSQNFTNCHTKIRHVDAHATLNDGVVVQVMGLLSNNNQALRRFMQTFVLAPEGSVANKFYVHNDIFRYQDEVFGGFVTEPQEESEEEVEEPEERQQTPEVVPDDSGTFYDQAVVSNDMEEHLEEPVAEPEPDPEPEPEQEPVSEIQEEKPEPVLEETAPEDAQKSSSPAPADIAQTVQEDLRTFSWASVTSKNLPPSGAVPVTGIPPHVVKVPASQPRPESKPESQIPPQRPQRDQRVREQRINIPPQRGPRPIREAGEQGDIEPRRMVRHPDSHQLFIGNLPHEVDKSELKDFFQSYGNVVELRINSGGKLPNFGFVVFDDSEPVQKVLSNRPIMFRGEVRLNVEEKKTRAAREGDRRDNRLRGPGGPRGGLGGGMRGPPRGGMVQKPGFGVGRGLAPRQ
Method: RNA Bind-n-Seq
Form: RNA
Matrix: in vitro
Concentration: 200 nM
Notes: whole 134-nt RNA, ends assumed
Added: 150 mM KCl
Reference: input library
Reading: higher = stronger binding
| Oligonucleotide | log2 enrichment |
| --- | --- |
| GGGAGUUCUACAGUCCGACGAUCAAAAGACAACACGCACCCACACAGACACAGAGGGAAGGGGUUGGGAUGGGGACAGGGUGCACAGCAGGGCGGGGUAGGACCCCAGCCCCUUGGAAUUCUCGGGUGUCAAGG | 1.78 |
| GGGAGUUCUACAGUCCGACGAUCUCAAGUCCUGUGCUACACAUCGUAUGUACCGAAUCGGUGGAAAGGUUUUUUUGGAAAGUAUUAUGUUACGCCGUUCGGAUCUGCACUUCCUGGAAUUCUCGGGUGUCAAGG | -0.943 |
| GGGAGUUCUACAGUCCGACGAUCUGGGAGGUGGAUUUUGUUUAUUUUUUUAGCUCAUUUCCAGGGGUGGGAAUUUUUUUUUCAUAUGUGUCAUGAAUAAAGUUGUUUUUGAAAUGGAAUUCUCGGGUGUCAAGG | 0.0604 |
| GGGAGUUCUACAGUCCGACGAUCAGUCCUGUGCUACACAUCGUAUGUACCGAAUCGGAAAAAGGGAAAAAGGGAAAAAGGGAAAGUAUUAUGUUACGCCGUUCGGAUCUGCACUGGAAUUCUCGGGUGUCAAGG | -1.03 |
| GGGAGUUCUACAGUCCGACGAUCAGUCCUGUGCUACACAUCGUAUGUACCGAAUCGGAAAAAGGUUUUUGGUUUUUUUGGAAAGUAUUAUGUUACGCCGUUCGGAUCUGCACUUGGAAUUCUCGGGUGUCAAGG | -1.79 |
| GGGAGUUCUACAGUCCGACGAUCUAACUUUAGAGGAGGAUCUGAUGGAUAUGGCAGUGGACGUGGAUUUGGGGAUGGCUAUAAUGGGUAUGGAGGAGGACCUGGGGGUGGCAAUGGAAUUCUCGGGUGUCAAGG | 0.201 |
| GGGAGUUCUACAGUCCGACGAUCACCAUGCAGGUGGGCAUCUUUGGGAAGUGGGGCAAGGGGGGGAUAGGGAGGGGGGUAACACUUUGAAAACAGGUGGUCCCAGGUCGUUUCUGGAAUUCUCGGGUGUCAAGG | 1.32 |
| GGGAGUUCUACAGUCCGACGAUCAUGGAUGACCCCUCUGUGGGCCCCAAGAUCCCCCAGGCUUUGGAGAAGAUCCUGCAGCUGAAGGAGAGCCGCCAGGAAGAGAUGAAUUCUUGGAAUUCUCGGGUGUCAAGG | -1.41 |

Set 3
Target: Interferon regulatory factor 5, full length, phosphomimetic (IRF5, Homo sapiens, UniProt Q13568-2, residues 1-514, S451D/S453D/S456D/S462D)
Method: protein-binding microarray
Form: double-stranded DNA, one strand shown
Matrix: in vitro
Concentration: 940 nM top
Notes: 60-bp whole probe
Added: salmon DNA 0.4 mg/ml
Reference: random background probes
Reading: higher = stronger binding
Shared flanks, not repeated: GCCTAGCAC … GTCTTGATTCGCTTGACGCTGCTG
| Oligonucleotide | fitted relative affinity [z-score] |
| --- | --- |
| TTAGATATCGGGAATCGATTAGTGCTA | 0.166 |
| TTAGAACTGAGACTGGATTGGTGCTAG | 0.0214 |
| GACGATCTGGGGTATCGAGACGTGCTA | 0.987 |
| ACATCCAAATCCACCATTCAGTGCTAG | 1.41 |
| GACAGACTGGGACTGGGGACGTGCTAG | -0.495 |
| CACGATTTCGGGTTTCGAGACGTGCTA | 2.16 |
| GACGGTATCCTTCTCCTGAGGTGCTAG | 0.251 |
| GACGGACTAGGTATCGGGACGTGCTAG | 0.897 |

Single results of other studies
Parent: viral docking peptide; KGVKRKLFAEDSS
| Substitution | target | assay | system | conditions | scale | endpoint | value |
| --- | --- | --- | --- | --- | --- | --- | --- |
| A9Y | CCNE1, cyclin fold, Cln2 fusion (human) | yeast growth competition, sequencing | yeast | strong parent motif | reference: not given, higher = stronger binding | normalised enrichment score | 7.36 |

A few entries again (set 2):
| Oligonucleotide | log2 enrichment |
| --- | --- |
| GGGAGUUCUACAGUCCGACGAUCUCAAGUCCUGUGCUACACAUCGUAUGUACCGAAUCGGUGGAAAGGUUUUUUUGGAAAGUAUUAUGUUACGCCGUUCGGAUCUGCACUUCCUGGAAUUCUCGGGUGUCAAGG | -0.943 |
